Published values pooled from the literature.
Compare with care: the assays were run in different laboratories. ± marks the error that the study gave.

COc1ccc(CNc2nc(N3CCC[C@H]3CO)ncc2C(=O)NNC(=O)c2cnc(N3CCC[C@H]3CO)nc2NCc2ccc(OC)c(Cl)c2)cc1Cl  revertant count (Salmonella typhimurium; TA102; 500 µg/plate, with: rat liver S9): 208 ± 11
O=C(O)c1cc[c]([Hg][Cl])cc1  EC50 (Trypanosoma brucei; viability, flow cytometry; bloodstream form; 24 h): 2000 nM
COc1ccc(-c2cnc3[nH]cc(C#Cc4cccnc4)c3c2)cc1OC  CC50 (SARS-CoV-2 USA-WA1/2020; alamarBlue; Vero E6, infected; 24 h post infection): > 20000 nM
CC(=Nc1ccccc1)c1c(C)cc(=O)n(O)c1O  selectivity index (hepatitis B virus; viral replication, qPCR; HepDES19 genotype D; baseline: CC50 over EC50): 46.2
CC(C)=CCNCCOC1C2CC3CC(C2)CC1C3 (stereo not drawn)  selectivity index (Trypanosoma brucei; baseline: CC50 HepG2 over IC50 T. brucei): 3.1
COC(=O)c1cc(O)c(=O)c(O)cc1C  selectivity index (hepatitis B virus; HepDES19; baseline: CC50 over EC50): 60 fold
CCOc1ccc(C(=O)N2c3ccc(F)cc3[C@@H](Nc3ccccc3)C[C@H]2C)cc1  mortality (Aedes albopictus; 1 µM, 3 days, second-instar larvae): 47%
CC(C)=CCC/C(C)=C/CNCCOC1C2CC3CC(C2)CC1C3 (stereo not drawn)  selectivity index (Trypanosoma brucei; baseline: CC50 HepG2 over IC50 T. brucei): 3.8
CCC(=O)N(C)c1ccc(Cl)c(Cl)c1  revertants (Salmonella typhimurium; Ames test; TA98; 0.10 mg/plate, without S9 activation): 19 ± 6.4 revertants/plate
CC(C)=CCC/C(C)=C/CC/C(C)=C/CNCCOC1C2CC3CC(C2)CC1C3 (stereo not drawn)  selectivity index (Trypanosoma brucei; baseline: CC50 HepG2 over IC50 T. brucei): 13
COc1ccc(CNc2nc(N3CCC[C@H]3CO)ncc2C(=O)NN)cc1Cl  revertant count (Salmonella typhimurium; TA102; 500 µg/plate, with: rat liver S9): 241 ± 25
Cc1cc(/C=C/C#N)cc(C)c1Nc1nc(Nc2ccc(C#N)cc2)ncc1N  therapeutic index (HIV-1 wild type; baseline: CC50 over EC50): > 25000
